Published values of several laboratories.
Compare with care: the assays were run in different laboratories. “And” joins repeats or separate records; there may be more than shown. ± marks the error that the study gave. Converted amounts (≈) assume the structure as drawn.

Amino acid sequences for entries named in this document (tags omitted).
UniProt Q62645, whole entry, looked up: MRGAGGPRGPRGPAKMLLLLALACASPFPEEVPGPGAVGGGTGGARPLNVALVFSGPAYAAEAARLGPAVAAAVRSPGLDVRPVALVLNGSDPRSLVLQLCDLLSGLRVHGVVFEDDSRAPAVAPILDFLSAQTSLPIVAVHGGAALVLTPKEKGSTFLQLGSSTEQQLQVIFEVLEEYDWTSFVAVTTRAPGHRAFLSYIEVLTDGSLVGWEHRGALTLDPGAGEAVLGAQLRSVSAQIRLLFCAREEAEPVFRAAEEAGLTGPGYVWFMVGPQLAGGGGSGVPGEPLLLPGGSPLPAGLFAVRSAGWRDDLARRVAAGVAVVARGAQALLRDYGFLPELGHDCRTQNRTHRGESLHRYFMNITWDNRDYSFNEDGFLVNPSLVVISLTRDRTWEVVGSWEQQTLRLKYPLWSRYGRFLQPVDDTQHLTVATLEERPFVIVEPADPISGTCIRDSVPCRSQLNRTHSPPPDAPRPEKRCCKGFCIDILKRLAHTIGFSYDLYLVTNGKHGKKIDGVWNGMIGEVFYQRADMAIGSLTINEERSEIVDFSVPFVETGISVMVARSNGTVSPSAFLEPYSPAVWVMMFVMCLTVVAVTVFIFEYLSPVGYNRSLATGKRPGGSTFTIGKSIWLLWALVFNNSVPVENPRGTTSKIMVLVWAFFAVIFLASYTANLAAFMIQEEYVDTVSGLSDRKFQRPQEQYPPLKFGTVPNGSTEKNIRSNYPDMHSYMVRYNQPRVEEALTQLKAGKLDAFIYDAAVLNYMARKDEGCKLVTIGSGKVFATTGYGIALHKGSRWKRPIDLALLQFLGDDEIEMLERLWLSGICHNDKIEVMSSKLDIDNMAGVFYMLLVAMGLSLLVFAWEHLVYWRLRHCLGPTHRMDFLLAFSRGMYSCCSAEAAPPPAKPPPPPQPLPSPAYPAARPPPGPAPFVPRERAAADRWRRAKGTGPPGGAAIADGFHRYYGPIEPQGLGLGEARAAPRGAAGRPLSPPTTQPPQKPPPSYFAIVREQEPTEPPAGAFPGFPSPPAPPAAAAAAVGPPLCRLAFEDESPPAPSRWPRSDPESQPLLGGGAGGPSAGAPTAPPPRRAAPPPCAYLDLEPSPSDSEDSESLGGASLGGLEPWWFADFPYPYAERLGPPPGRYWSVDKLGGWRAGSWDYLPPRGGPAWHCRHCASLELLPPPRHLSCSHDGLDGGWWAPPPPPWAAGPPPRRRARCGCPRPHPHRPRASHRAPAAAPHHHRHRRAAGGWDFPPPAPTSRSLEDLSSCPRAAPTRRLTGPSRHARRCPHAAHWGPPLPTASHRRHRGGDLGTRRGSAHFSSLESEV
UniProt P28222, whole entry: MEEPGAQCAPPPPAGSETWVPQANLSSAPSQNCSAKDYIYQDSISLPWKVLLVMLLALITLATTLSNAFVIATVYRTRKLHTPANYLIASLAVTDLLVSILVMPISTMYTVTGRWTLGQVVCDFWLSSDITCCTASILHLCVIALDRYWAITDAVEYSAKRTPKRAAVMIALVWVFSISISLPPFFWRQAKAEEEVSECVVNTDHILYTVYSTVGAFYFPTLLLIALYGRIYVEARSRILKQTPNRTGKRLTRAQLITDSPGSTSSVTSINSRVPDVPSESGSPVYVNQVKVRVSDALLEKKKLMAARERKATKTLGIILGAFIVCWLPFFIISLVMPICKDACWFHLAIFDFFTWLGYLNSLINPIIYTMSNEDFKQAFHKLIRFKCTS

SMILES | target or system | test | system | setting | how to read | endpoint | result
C[C@H](Cc1ccc(O)c(O)c1)[C@@H](C)Cc1ccc(O)c(O)c1 |  |  | water | 24 h, room temperature |  | solubility | 80 µg/mL (≈ 265 µM)
CSc1nc(Cl)cc(Sc2nnc(-c3cc(C(F)(F)F)cc(C(F)(F)F)c3)[nH]2)n1 | Escherichia coli |  | NR698 | 25 µM, 2 h, 37 °C, no membrane permeabilizer |  | CFU reduction | ~4 log units
COc1ccc(OC[C@H]2c3cccn3CC(=O)N2Cc2cccc(F)c2)cc1 | Glutamate receptor ionotropic, NMDA 2D, with GluN1 (Rattus norvegicus, UniProt Q62645) | ion current, whole-cell patch clamp | HEK293T cells, transfected | 10 µM, together with: glutamate for 10 ms | relative to: baseline | charge transfer | 4.7 ± 2.7 fold
CC(C)COc1ccc2nc3ccc(=O)cc-3oc2c1 | Mycobacterium tuberculosis |  | mc2 6206 clofazimine-resistant fbiC mutant | 7 days |  | MIC90 | 6.9 µM (≈ 1.86 µg/mL)
Cc1ccc(S(=O)(=O)N(C)CC(=O)N(Cc2ccc(C3CCCCC3)cc2)c2ccc(C(=O)O)c(O)c2)cc1 | HPDEC | cell viability, CyQuant |  |  |  | IC50 | > 100 µM
CCCCCCC1c2ccc(O)cc2Oc2cc(O)ccc21 | Salmonella Typhimurium |  | SL1344 |  |  | MIC | > 373 µg/mL
O=c1ccc2nc3ccc(OCC(O)C(F)(F)F)cc3oc-2c1 (stereo not shown) | Mycobacterium tuberculosis |  | mc2 6206 bedaquiline-resistant MmpL5 regulator mutant | 7 days |  | MIC90 | 14 µM (≈ 4.55 µg/mL)
CCC(C)C1NC(=O)/C(=C(/C)O)C1=O (stereo not shown) | Arabidopsis thaliana | apo-pHusion imaging, measured: apoplastic pH | elongating root cells | 10 µM |  | time to peak alkalinization | 3 to 4 min
CCN(CC)C(=O)Oc1ccc(C(=O)Nc2cccc3cc[nH]c23)cc1 |  | NMDA receptor EPSC, inhibitor, whole-cell patch clamp | subthalamic nucleus neurons, rat, subthalamic nucleus slices | 10 µM | relative to: control | peak amplitude | 55 ± 3%
CCN1CCN(Cc2ccc(NC(=O)c3ccc(C)c(/C=C/c4cnc5[nH]ccc5c4OC)c3)cc2C(F)(F)F)CC1 | human FLT3 ITD | kinase-CDC37 interaction, inhibitor | human cells | 5 µM | relative to: vehicle | log2 fold change | -1.27
CCCN1CCN(c2ccc3c(c2)C2CC3CCN2C(=O)OCc2ccccc2)CC1 (stereo not shown) | HTR1B (Homo sapiens, UniProt P28222) | binding, radioligand binding |  |  |  | Ki | > 10 µM
O=c1ccc2nc3ccc(OCCCCF)cc3oc-2c1 | Mycobacterium tuberculosis |  | mc2 6206 bedaquiline-resistant MmpL5 regulator mutant | 7 days |  | MIC90 | 9 µM (≈ 2.59 µg/mL)
CC#C/C(=N\OC[C@H]1COCCN1)c1ccc2ncnc(Nc3ccc(OCc4cccc(F)c4)c(Cl)c3)c2c1 | MRC5 | cell growth, WST-8 |  | 72 h |  | IC50 | 4.96 µM and ~5 µM
